# Measured values gathered from unrelated publications.
# “And” joins repeats or separate records; there may be more than shown. ± marks the error that the study gave.
# BCHE: Cholinesterase (BCHE, Homo sapiens, UniProt P06276)
# Chain of UniProt P06276 (whole entry, looked up): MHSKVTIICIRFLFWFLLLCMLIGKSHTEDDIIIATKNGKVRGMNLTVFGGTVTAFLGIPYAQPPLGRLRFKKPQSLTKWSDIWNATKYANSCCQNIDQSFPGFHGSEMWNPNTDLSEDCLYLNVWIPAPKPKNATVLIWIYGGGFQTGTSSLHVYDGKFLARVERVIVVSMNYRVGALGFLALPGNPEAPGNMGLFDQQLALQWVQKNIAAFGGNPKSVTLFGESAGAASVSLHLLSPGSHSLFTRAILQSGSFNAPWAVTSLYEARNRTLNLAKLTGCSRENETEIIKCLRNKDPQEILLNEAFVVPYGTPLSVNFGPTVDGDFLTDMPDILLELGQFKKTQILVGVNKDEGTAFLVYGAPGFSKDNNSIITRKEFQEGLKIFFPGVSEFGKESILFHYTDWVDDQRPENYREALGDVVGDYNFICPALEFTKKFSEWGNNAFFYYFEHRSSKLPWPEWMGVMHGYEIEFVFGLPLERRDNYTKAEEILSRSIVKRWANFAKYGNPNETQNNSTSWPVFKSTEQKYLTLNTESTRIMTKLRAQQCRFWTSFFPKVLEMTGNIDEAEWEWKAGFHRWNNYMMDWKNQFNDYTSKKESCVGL
Structure (SMILES),target or system,assay,test system,setting,scale,quantity,value
Cc1cc(Nc2ccc(C)c(Cl)c2)n2nc(C(F)(F)F)nc2n1,Plasmodium falciparum,"parasite growth, SYBR Green",3D7 wild type,72 h,,EC50,0.0373 ± 0.0044 µM
O=C(NC(=O)c1c(F)cccc1F)Nc1ccc(Cl)cc1,Ostrinia furnacalis,leaf dipping,,"200 mg/L, 96 h",,mortality,53.3 ± 3.8%
C=CCc1ccccc1OCC(O)CNC1(C)CCC(C(C)(C)NC(=O)CBr)CC1 (stereo not shown),Plasmodium falciparum,,Dd2,,,IC50,3.16 µM
COc1cc(N[C@H](C(=O)c2c[nH]c3ccc(OC(F)(F)F)cc23)c2ccc(Cl)cc2OC)cc(S(C)(=O)=O)c1,dengue virus 2,"viral infection, luciferase reporter virus",,"0.3 nM, 48 h",,inhibition,100%
Cc1scc2c1N(C(=O)CN1CCN(C)CC1)c1ccccc1NC2=O,Plasmodium falciparum,,HB3,,,IC50,3.98 µM
C#Cc1ccc(C=NNC(=O)c2ccc(Br)cc2Br)c(O)c1,Cryptococcus neoformans,,H99,"unit not given, added: amphotericin B",lower = more synergy,FICI,1.25
CC(C)[C@@H]1NC(=O)[C@@H](CCCCN)NC(=O)[C@H]([C@@H](C)O)NC(=O)[C@@H](CCCCN)NC(=O)[C@H](Cc2c[nH]c3ccccc23)NC(=O)[C@@H](C)NC(=O)[C@@H](C(C)C)NC(=O)[C@@H](C)NC(=O)[C@H](Cc2c[nH]c3ccccc23)NC(=O)[C@@H](Cc2c[nH]c3ccccc23)NC1=O,Acanthamoeba castellanii,,,trophozoites,,IC90,> 16 mg/L
CCCn1c(O)nnc1SCC(=O)Nc1cc(C(F)(F)F)ccc1Cl,Plasmodium falciparum,"parasite growth, SYBR Green",3D7 wild type,72 h,,EC50,0.157 ± 0.067 µM
C[C@@H](O)[C@@H]1NC(=O)[C@@H](CCCCN)NC(=O)[C@H](CCCN)NC(=O)[C@@H](CCCN)NC(=O)[C@H](CO)NC(=O)[C@H](Cc2c[nH]c3ccccc23)NC(=O)[C@@H](Cc2c[nH]c3ccccc23)NC1=O,Acanthamoeba castellanii,,,trophozoites,,IC50,> 16 mg/L
O=C1N=c2cc(Cl)c(Cl)cc2=NC1=O,Plasmodium falciparum,,GB4,,,IC50,3.98 µM
CCCCCCCCCC(=O)N[C@@H](Cc1c[nH]c2ccccc12)C(=O)N[C@H](CC(N)=O)C(=O)N[C@@H](CC(=O)O)C(=O)N[C@@H]1C(=O)NCC(=O)N[C@@H](CCCN)C(=O)N[C@@H](CC(=O)O)C(=O)N[C@H](C)C(=O)N[C@@H](CC(=O)O)C(=O)NCC(=O)N[C@H](CO)C(=O)N[C@@H]([C@H](C)CC(=O)O)C(=O)N[C@@H](CC(=O)c2ccccc2N)C(=O)O[C@@H]1C,Staphylococcus aureus,,,,,MIC90,0.5 mg/L
C[C@@H]1CC[C@H]2[C@@H](C)C(=O)O[C@@H]3O[C@@]4(C)CC[C@@H]1[C@]32OO4,Plasmodium falciparum,,D10,,,IC50,0.015 µM
CN(C)c1nc(NCc2ccc(OC(F)(F)F)cc2)c(/N=N/c2ccc(Cl)cc2)c(N(C)C)n1,Ostrinia furnacalis,leaf dipping,,"50 mg/L, 96 h",,mortality,16.7 ± 5.8%
Nc1cc(Oc2ccccc2)ccc1-c1noc(-c2ccc(O)cc2)n1,Clostridioides difficile,spore germination,ATCC 43255,"45 µM, 1 h",,inhibition,14 to 39%
CCN(CC)[C@@H]1CCc2c(F)ccc(O)c2C1,Plasmodium falciparum,,3D7,,,IC50,1.58 µM
COCC(C)n1c(SCC(=O)Nc2cc(C(F)(F)F)ccc2Cl)nc2ccccc2c1=O (stereo not shown),Plasmodium falciparum,parasite growth,Dd2,,,EC50,0.421 ± 0.06 µM
Cn1c(=O)ccc2ccc(F)c(CCNC[C@H]3CN(c4cnc5c(n4)NC(=O)CO5)C(=O)O3)c21,Campylobacter spp.,,,,,MIC90,< 0.015 mg/L
O=c1cnn([C@@H]2O[C@H](CO)[C@@H](O)[C@H]2O)c(=O)[nH]1,respiratory syncytial virus,,RSV-infected cells,concentration not given,,apoptosis,decreased
CNC(=O)c1cc(Cl)cc(C)c1NC(=O)c1cc(Br)nn1-c1ncccc1Cl,Spodoptera litura,leaf-dip,third instar larvae,"12.5 ppm, 48 h",,mortality,70%
Cc1c(NC(=O)c2cc3c(s2)CCCC3)cccc1-c1cn(C)c(=O)c(Nc2ccc(C3C(=O)N(C)CCN3C)cc2)n1 (racemic),BCHE,"inhibitor, fluorometric",,,,IC50,13.8 ± 6.37 µM
Cc1ccc2[nH]c3c(c2c1)CCCC3NCCc1ccc(F)cc1 (stereo not shown),Streptococcus pneumoniae,,,"concentration not given, 10% fetal bovine serum",relative to: without serum,MIC fold change,4
Cc1[nH]c(C)c(-c2ccc(OCCn3cnc(Cl)c3Cl)cc2)c(=O)c1Br,Plasmodium falciparum,"parasite growth, SYBR Green",,72 h,relative to: 3D7-E182D over 3D7,EC50 ratio,3.3
COC(=O)N[C@H](C(=O)N1CCC[C@H]1c1ncc(-c2ccc(-c3ccc(-c4cnc([C@@H]5CCCN5C(=O)[C@@H](NC(=O)OC)C(C)C)[nH]4)cc3)cc2)[nH]1)C(C)C,Hepatitis C virus,,replicon cells,"90% effect level, added: NS5B inhibitor, ratio 2.5:1",,combination index,0.8
C[C@@H](O)[C@@H]1NC(=O)[C@H](Cc2ccccc2)NC(=O)[C@@H](Cc2ccccc2)NC(=O)[C@H]([C@@H](C)O)NC(=O)[C@@H](CCCCN)NC(=O)[C@H](CC(=O)O)NC1=O,Naegleria fowleri,,,trophozoites,,IC90,> 16 mg/L
CCN1CCN(C(=O)N[C@@H](C(=O)N[C@@H]2C(=O)N3[C@@H]2SC(C)(C)[C@@H]3C(=O)O)c2ccccc2)C(=O)C1=O,Escherichia coli,,ΔtolC JW5503-1,"200 µM, added: 30 µg/mL 2,2'-bipyridyl",,zone of inhibition,24 mm
O=C(NN=Cc1ccc(O)c(Br)c1)c1cccc(Br)c1,Cryptococcus neoformans,,,"concentration not given, added: fluconazole",,MIC in combination,0.063 mg/L
O=C(CNCC1CCCCC1)Nc1cc(C(F)(F)F)ccc1Cl,Plasmodium falciparum,"parasite growth, SYBR Green",3D7 wild type,72 h,,EC50,0.474 ± 0.1 µM
COc1ccccc1N1CCN(CCCCNC(=O)c2ccc3ccccc3c2)CC1,Plasmodium falciparum,,7G8,,,IC50,6.31 µM
CC(C)[C@H]1NC(=O)[C@H](Cc2ccccc2)NC(=O)CNC(=O)[C@@H](Cc2ccccc2)NC(=O)[C@H](CCC(N)=O)NC(=O)[C@@H](CCCN)NC1=O,Acanthamoeba castellanii,,,trophozoites,,IC50,15.8 mg/L
C[C@@H](O)[C@H]1C(=O)N2C(C(=O)O)=C(S[C@@H]3CN[C@H](C(=O)N(C)C)C3)[C@H](C)[C@H]12,Klebsiella pneumoniae,,"NDM-producing, neutropenic BALB/c mouse, thigh infection, thigh","dose not given, 4 h",,"bacterial burden, mean",8.3 log10 CFU/thigh
C=C(CN(C(=O)c1c(C(F)F)nn(C)c1F)C1CC1)c1ccc(Cl)cc1Cl,Alternaria solani,,,1.56 mg/L,,colony diameter,15 mm and 14 mm and 13 mm and 12 mm
CS(=O)(=O)CCCn1c(Cn2c(=O)n(CC(F)(F)F)c3ccncc32)cc2cc(Cl)ccc21,respiratory syncytial virus,RT-qPCR,"hospitalized infants 1-24 months, nasal swab","oral, 1-9 mg/kg daily, day 6, all doses combined",relative to: placebo,LS mean difference vs placebo,-0.25 log10 copies/mL
OC(CCN1CCCCC1)(c1ccccc1)C1CCCCC1 (stereo not shown),Plasmodium falciparum,,3D7,,,IC50,12.6 µM
CN1CCC[C@@H]1Cc1c[nH]c2ccc(CCS(=O)(=O)c3ccccc3)cc12,BCHE,inhibitor,,,,IC50,5.25 ± 0.34 µM
CCOC(=O)c1cn(CC)c2cc(O[C@H]3CCN(C(=O)OC(C)(C)C)C3)ccc2c1=O,Plasmodium falciparum,"parasite growth, SYBR Green",3D7 wild type,72 h,,EC50,0.4 ± 0.076 µM
CC(C)[C@H]1NC(=O)[C@@H]([C@H](C)O)NC(=O)[C@H](CO)NC(=O)[C@@H](CCCNC(=N)N)NC(=O)CNC(=O)[C@H](Cc2ccccc2)NC(=O)[C@H]([C@@H](C)O)NC1=O,Acanthamoeba castellanii,,,trophozoites,,IC50,> 16 mg/L
Cc1cc(Nc2ccc(C(C)(C)C)cc2)c2[nH]ncc2n1,Plasmodium falciparum,"parasite growth, SYBR Green",3D7 wild type,72 h,,EC50,0.496 ± 0.19 µM
CC[C@H](C)[C@H](NC(=O)[C@H](C)NC(=O)[C@H](CCCCN)NC(=O)[C@H](CC(C)C)NC(=O)[C@H](C)NC(=O)[C@@H](NC(=O)[C@H](Cc1c[nH]cn1)NC(=O)[C@H](CC(C)C)NC(=O)[C@@H](NC(=O)[C@@H](NC(=O)[C@H](CCCCN)NC(=O)[C@H](C)NC(=O)[C@H](C)NC(=O)[C@H](CO)NC(=O)[C@H](CCCCN)NC(=O)[C@H](Cc1ccccc1)NC(=O)[C@@H](NC(=O)[C@H](CCCCN)NC(=O)[C@H](CC(C)C)NC(=O)[C@H](Cc1ccccc1)NC(=O)[C@H](CO)NC(=O)[C@H](CCCCN)NC(=O)[C@H](Cc1c[nH]c2ccccc12)NC(=O)[C@H](CCCCN)NC(C)=O)[C@@H](C)O)[C@@H](C)O)C(C)C)[C@@H](C)O)C(=O)N[C@@H](CO)C(=O)N[C@@H](CO)C(N)=O,Citrobacter,,,20 strains,,MIC50,8 mg/L
C#Cc1ccc(O)c(C=NNC(=O)c2ccc(COC)cc2)c1,Cryptococcus neoformans,,H99,"unit not given, added: amphotericin B",lower = more synergy,FICI,2.5
C[C@H]1CN(c2n[nH]c3nc(N[C@H]4CC[C@H](NS(=O)(=O)CCC(F)(F)F)CC4)ncc23)CCO1,Leishmania donovani,,"promastigotes, LdBOB CRK12 single knockout",,relative to: wild type,EC50 fold change,0.6
CN(C)CCCN1c2ccccc2CCc2ccccc21,Plasmodium falciparum,,W2,,,IC50,1.26 µM
CC(C)[C@@H]1NC(=O)[C@@H](CCCN)NC(=O)[C@H]([C@@H](C)O)NC(=O)[C@@H](CCCN)NC(=O)[C@H](Cc2ccccc2)NC(=O)[C@@H](C)NC(=O)[C@@H](C(C)C)NC(=O)[C@@H](C)NC(=O)[C@H](Cc2c[nH]c3ccccc23)NC(=O)[C@@H](Cc2c[nH]c3ccccc23)NC1=O,Acanthamoeba castellanii,,,trophozoites,,IC90,> 16 mg/L
NCc1ccc(-c2nc(-c3ccc(OC4CC4)cc3)no2)cc1,Clostridioides difficile,spore germination,ATCC 43255,"45 µM, 1 h",,inhibition,12 to 33%
Cc1cc(Cl)cc(S(C)(=O)=O)c1NC(=O)c1cc(Br)nn1-c1ncccc1Cl,Spodoptera litura,leaf-dip,third instar larvae,"12.5 ppm, 48 h",,mortality,50.7%
Cc1ccccc1C(=O)NN=Cc1ccc(O)c(Br)c1,Cryptococcus neoformans,,,"concentration not given, added: amphotericin B",,MIC in combination,0.25 mg/L
CC(C)[C@H]1NC(=O)[C@H](Cc2ccccc2)NC(=O)CNC(=O)[C@@H](Cc2ccccc2)NC(=O)[C@H](CCCCN)NC(=O)[C@@H](CCCNC(=N)N)NC1=O,Naegleria fowleri,,,trophozoites,,IC50,> 16 mg/L
Cc1ccc(NC(=O)c2cc(S(=O)(=O)NC(C)(C)C)ccc2C)nc1,Plasmodium falciparum,"parasite growth, SYBR Green",3D7 wild type,72 h,,EC50,0.475 ± 0.17 µM
COc1ccc2c(ccc3oc([N+](=O)[O-])c(OC)c32)c1,Klebsiella pneumoniae,REMA,,,,MIC90,> 32 mg/L
NCCCC[C@H]1NC(=O)[C@H](Cc2ccccc2)NC(=O)[C@H](Cc2c[nH]c3ccccc23)NC(=O)[C@@H](Cc2ccccc2)NC(=O)[C@H](Cc2ccccc2)NC(=O)[C@@H](CCCN)NC(=O)[C@H](CCCN)NC1=O,Acanthamoeba castellanii,,,trophozoites,,IC90,> 16 mg/L
C#Cc1cccc(C=NNC(=O)c2ccc(Br)c(Br)c2)c1O,Cryptococcus neoformans,,H99,"unit not given, added: fluconazole",lower = more synergy,FICI,0.75
Cc1ccc2[nH]c3c(c2c1)CCCC3NCCc1ccc(Cl)cc1 (stereo not shown),Streptococcus pneumoniae,,,"concentration not given, 10% fetal bovine serum",relative to: without serum,MIC fold change,4
CO/C=C(/C(=O)OC)c1ccccc1Oc1cc(Oc2ccccc2C#N)ncn1,Botrytis cinerea,"lesion diameter, spray","B05.10, cucumber seedlings","3 days, 20 °C",,EC95,12.4 mg/L

# A few entries again:
Structure (SMILES),target or system,assay,test system,setting,scale,quantity,value
C[C@@H](O)[C@H]1C(=O)N2C(C(=O)O)=C(S[C@@H]3CN[C@H](C(=O)N(C)C)C3)[C@H](C)[C@H]12,Klebsiella pneumoniae,,"NDM-producing, neutropenic BALB/c mouse, thigh infection, thigh","dose not given, 4 h",,"bacterial burden, mean",8.3 log10 CFU/thigh
C=C(CN(C(=O)c1c(C(F)F)nn(C)c1F)C1CC1)c1ccc(Cl)cc1Cl,Alternaria solani,,,1.56 mg/L,,colony diameter,15 mm and 14 mm and 13 mm and 12 mm
CS(=O)(=O)CCCn1c(Cn2c(=O)n(CC(F)(F)F)c3ccncc32)cc2cc(Cl)ccc21,respiratory syncytial virus,RT-qPCR,"hospitalized infants 1-24 months, nasal swab","oral, 1-9 mg/kg daily, day 6, all doses combined",relative to: placebo,LS mean difference vs placebo,-0.25 log10 copies/mL
OC(CCN1CCCCC1)(c1ccccc1)C1CCCCC1 (stereo not shown),Plasmodium falciparum,,3D7,,,IC50,12.6 µM
CN1CCC[C@@H]1Cc1c[nH]c2ccc(CCS(=O)(=O)c3ccccc3)cc12,BCHE,inhibitor,,,,IC50,5.25 ± 0.34 µM
